Measured values from different studies.
Protocols differ between the studies behind these lines. Several values in a cell are separate wells, animals, samples, runs or records. ± gives the spread as reported. Converted amounts (≈) assume the structure as drawn.

| Molecule | test | test system | conditions | how to read | measurement | value |
| --- | --- | --- | --- | --- | --- | --- |
| O=C1N=C(N2CCOCC2)CN1c1ccc(Cl)cc1 |  | beagle dog, both sexes, plasma | oral, 30 mg/kg, tablets, fasted, day 5 |  | CL/F | 6.83 mL/min/kg |
| C[C@@H](Oc1ccc(S(C)(=O)=O)cc1C(=O)N1C[C@@H]2C[C@]2(c2cc(C(F)(F)F)on2)C1)C(F)(F)F |  | human male, plasma | oral, 50 mg once daily, 312 h |  | trough concentration | 445 nM |
| Cc1nc2cccc(OCC(C)(C)C(=O)NC(C)C)c2c(N)c1C(=O)O |  | female Sprague-Dawley rat, plasma | oral gavage, 100 mg/kg, day 7 |  | Tmax | 0.25 h |
| C=CC(N)CCC(=O)O (stereo not drawn) |  | male Sprague-Dawley rat, plasma | intravenous, 1.0 mg/kg, formulation 0 |  | elimination rate constant | 0.000556 ± 5.56e-05 s⁻¹ |
| CS(=O)(=O)OC[C@H](O)[C@@H](O)COS(C)(=O)=O |  | Wistar rat, male, red blood cells and plasma | intraperitoneal, 500 mg/kg, 1 h |  | RBC/plasma partition coefficient | 0.66 and 0.75 and 0.84 |
| C[C@]12CC[C@@H]3c4ccc(O)cc4CC[C@H]3[C@@H]1C[C@@H](O)[C@@H]2O | GC-MS | breast cancer women on NSAI, serum | vaginal, 0.03 mg, 8 h, day 0 |  | maximum serum concentration | 0 ng/mL |
| CCCCCCCCN(CCCCCCCC)CC(=O)N(CC(=O)N(CCCCN)CC(=O)N(CCN)CC(=O)N(CC(N)=O)C1CCCCC1)C1CCCCC1 | preparative RP-HPLC C18 | water to acetonitrile gradient | 0.05% TFA in eluent | higher = more hydrophobic | acetonitrile at elution | 69.3% |
| teicoplanin |  | human, CrCl at least 60 mL/min, serum | intravenous, 400 mg q12h loading, 400 mg/day, day 4 |  | trough concentration | 18.1 ± 6.37 mg/L |
| CO[C@H]1C[C@@H]2CC[C@@H](C)[C@@](O)(O2)C(=O)C(=O)N2CCCC[C@H]2C(=O)O[C@H]([C@H](C)C[C@@H]2CC[C@@H](OP(C)(C)=O)[C@H](OC)C2)CC(=O)[C@H](C)/C=C(\C)[C@@H](O)[C@@H](OC)C(=O)[C@H](C)C[C@H](C)/C=C/C=C/C=C/1C |  | Japanese patients, whole blood | oral, 40 mg, day 1 |  | t1/2 | 55.8 ± 4.85 h |
| COc1ccc(/C=C\c2cc(OC)c(OC)c(OC)c2)cc1OP(=O)(O)O |  | rat Sprague-Dawley male, plasma | intravenous, 28 mg/kg |  | volume of distribution | 1.74 ± 0.83 L/kg |
| Cc1c(C(=O)NN2CCCCC2)nn(-c2ccc(Cl)cc2Cl)c1-c1ccc(Cl)cc1 | LC-MS/MS | cynomolgus monkey 5, plasma | intravenous infusion, 0.1 mg/kg, 90 min, total concentration mid-point of PET |  | plasma concentration | 92 nM |
| CCn1ncc2c1-c1cnc(N)c(c1)O[C@H](C)c1cc(F)ccc1-c1nn(C)nc1C2 |  | nude mouse PDX model, plasma | oral, 0.04 mg/kg twice daily, 12 h |  | free plasma concentration | 0.2 to 0.7 nM |
| CC(C)c1nc(CN(C)C(=O)N[C@H](C(=O)N[C@@H](Cc2ccccc2)C[C@H](O)[C@H](Cc2ccccc2)NC(=O)OCc2cncs2)C(C)C)cs1 |  | HIV-infected patients, plasma | oral, 100 mg once daily, day 1, steady state, together with: atazanavir 300 mg once daily |  | AUC(0-24) | 14200 ng·h/mL |
| COc1cccc(N2CCN(C3=Nc4c(F)cccc4[C@H](CC(=O)O)N3c3cc(C(F)(F)F)ccc3OC)CC2)c1 | UHPLC-MS/MS | healthy women, plasma | intravenous infusion, 240 mg single dose, 30 min infusion, HPβCD formulation |  | elimination rate constant | 1.83e-05 ± 2.7e-06 s⁻¹ |
| CCOC(=O)c1cn(CC)c2cc(N3CCC(C)CC3)c(F)cc2c1=O |  | human liver microsomes | 1 µM |  | CLint | 205 µL/min/mg |
| CN1CCN(c2ccc3nc(-c4c(N)c5c(F)cccc5[nH]c4=O)[nH]c3c2)CC1 |  | patients, plasma | oral, 300 mg daily 5 days on 2 off, day 19, maximum, together with: gemcitabine and capecitabine |  | t1/2 | 19.8 h |
| CN[C@H](CC(C)C)C(=O)N[C@H]1C(=O)N[C@@H](CC(N)=O)C(=O)N[C@H]2C(=O)N[C@H]3C(=O)N[C@H](C(=O)N[C@H](C(=O)O)c4cc(O)cc(O)c4-c4cc3ccc4O)[C@H](O)c3ccc(c(Cl)c3)Oc3cc2cc(c3O[C@@H]2O[C@H](CO)[C@@H](O)[C@H](O)[C@H]2O[C@H]2C[C@](C)(N)[C@H](O)[C@H](C)O2)Oc2ccc(cc2Cl)[C@H]1O | microdialysis | pig (Danish Landrace), cancellous bone | iv infusion, 1000 mg over 100 min, MIC 2.0 µg/mL, together with: meropenem co-administered |  | time above MIC | 379 min |
| N#C[C@@H]1CCCN1C(=O)CNC12CC3CC(CC(O)(C3)C1)C2 |  | male ICR mouse, plasma | oral, 3 mg/kg, 24 h |  | AUC | 2970 ng·h/mL |

| Molecule | test | test system | conditions | how to read | measurement | value |
| --- | --- | --- | --- | --- | --- | --- |
| CCOc1cccc(C(=O)Nc2ccc(-c3nc4ccccc4[nH]3)cc2)c1 |  | 0.1 M sodium acetate with 0.01% Triton X-100 | pH 5.5 |  | maximum solubility | 10 µM |
| O=C(c1cc(Cl)c(O)c(Cl)c1)N1CS(=O)(=O)c2ccccc21 |  | human, healthy Chinese adults | oral, 1 mg single dose | relative to: subjects | drug-related adverse events | 25% |
| CCCC[C@@H]1NC(=O)[C@@H](NC(=O)[C@H](CCC(=O)O)NC(=O)CNC(=O)CN2CCN(CC(=O)O)CCN(CC(=O)O)CCN(CC(=O)O)CC2)CCCCNC(=O)C[C@@H](C(N)=O)NC(=O)[C@H](C(C)C)NC(=O)[C@@H]2CCCN2C(=O)[C@H](CCCNC(=N)N)NC(=O)CNC(=O)[C@H](Cc2c[nH]c3ccccc23)NC(=O)[C@H](CCCNC(=N)N)NC(=O)[C@@H](Cc2ccccc2)NC(=O)[C@H](Cc2c[nH]cn2)NC(=O)[C@H](CCC(=O)O)NC1=O [indium-111 labelled] |  | C57 mice, B16/F10 lung metastatic melanoma, stomach | intravenous, 0.037 MBq, 2 h |  | tissue uptake | 0.13 ± 0.05 %ID/g |
| C=CC(=C)CC[C@]1(C)[C@H](C)C[C@H](OC)[C@@]23C(=C[C@H](OC(=O)[C@@H](C)CC)C[C@@H]12)[C@@H](OC(C)=O)O[C@H]3OC(C)=O | haemolysis |  | 500 µM |  | haemolysis | 17% |
| [2H]C([2H])([2H])Oc1cc2c(cc1OC([2H])([2H])[2H])C1CC(=O)C(CC(C)C)CN1CC2 (stereo not drawn) | refers to: deuterated β-HTBZ | healthy human volunteers, plasma | oral, 24 mg single dose, standard meal |  | dose-normalized Cmax | 0.9 ng/mL |
| CCn1c(=O)c2c(nc(/C=C/c3ccc(O)c(OC)c3)n2C)n(CC)c1=O |  | healthy humans, plasma | oral, 40 mg, together with: rifampin 600 mg/day |  | metabolite to parent AUClast ratio | 0.0613 |
| Cc1cc(C)c2c(c1)[C@@H](N(Cc1cc(C(F)(F)F)cc(C(F)(F)F)c1)c1nnn(C)n1)CCCN2C[C@H]1CC[C@H](C(=O)O)CC1 |  | human, plasma | oral, 600 mg once daily, steady state, geometric mean |  | Vss/F | 1740 L |
| CN(C)C(=O)c1cc2cnc(Nc3ccc(N4CCNCC4)cn3)nc2n1C1CCCC1 |  | human, normal renal function, urine | oral, 400 mg single dose, 0 to 144 h |  | amount excreted in urine | 20.2 mg |
| CCc1nc(C(N)=O)c(Nc2ccc(N3CCC(N4CCN(C)CC4)CC3)c(OC)c2)nc1NC1CCOCC1 |  | healthy humans, fasted, plasma | oral, 40 mg, single dose |  | AUC(0-72h) | 865 ng·h/mL |
| CN(C)C(=O)c1cc2cnc(Nc3ccc(N4CCNCC4)cn3)nc2n1C1CCCC1 |  | human, tumour core | oral, 600 mg daily for 14 days |  | unbound concentration | 1.36 nmol/g |
| Cn1c(-c2ccc(C(N)=O)cc2F)nnc1C(C)(C)Oc1c(F)cc(Cl)cc1F |  | young non-Japanese subjects, plasma | oral, 50 mg single dose, day 1 |  | AUC(0-inf) mean | 8740 ng·h/mL |
| N#CC[C@H](C1CCCC1)n1cc(-c2ncnc3[nH]ccc23)cn1 |  | human | topical, 0.75% twice daily |  | bioavailability | 7.68% |
| O=C(/C=C/c1ccc(O)c2c1[C@H](C(=O)O)[C@@H](c1ccc(O)c(O)c1)O2)O[C@H](Cc1ccc(O)c(O)c1)C(=O)O | UPLC-MS/MS | Wistar rat, microcirculation dysfunction model, plasma | oral, 100 mg/kg Salvia miltiorrhiza stem-leaf extract FT |  | MRT(0-inf) | 10.7 ± 9.75 h |
| CCCS(=O)(=O)Nc1ccc(F)c(C(=O)c2c[nH]c3ncc(-c4ccc(Cl)cc4)cc23)c1F | equilibrium dialysis | 100% human plasma | 5 to 500 µM, before adding to plate |  | unbound fraction | 9.3e-06 ± 1.2e-06 |
| CCCC[C@H](NC(C)=O)C(=O)N[C@H]1CCC(=O)NC[C@@H](C(=O)N[C@@H](Cc2c[nH]c3ccccc23)C(N)=O)NC(=O)[C@H](CCCNC(=N)N)NC(=O)[C@@H](Cc2ccccc2)NC(=O)[C@H](Cc2c[nH]cn2)NC1=O |  | CD Sprague Dawley rat, female, plasma | subcutaneous, 5.0 mg/kg daily, day 1 |  | Vd/F | 10.1 L/kg |
| O=c1[nH]cc(F)c(=O)[nH]1 |  | patients, plasma | intravenous, 2400 mg/m2 maintenance, cycle 1, twice-daily cohort, no vorinostat |  | Css | 347 ± 92 ng/mL |
| O=C(O)Cc1ccccc1Nc1c(Cl)cccc1Cl |  | rat, plasma | oral, 10 mg/kg, together with: sesamin 10 mg/kg |  | AUC(0-24 h) | 9050 ± 3420 ng·h/mL |
| O=C1Nc2cc(F)cc(F)c2C(=O)CCc2ccccc21 | nephelometry | aqueous buffer | 30 min, pH 6.5 |  | kinetic solubility | 50 to 100 µg/mL (≈ 174 to 348 µM) |

Excerpt of the above:
| Molecule | test | test system | conditions | how to read | measurement | value |
| --- | --- | --- | --- | --- | --- | --- |
| CCn1ncc2c1-c1cnc(N)c(c1)O[C@H](C)c1cc(F)ccc1-c1nn(C)nc1C2 |  | nude mouse PDX model, plasma | oral, 0.04 mg/kg twice daily, 12 h |  | free plasma concentration | 0.2 to 0.7 nM |
| CCc1nc(C(N)=O)c(Nc2ccc(N3CCC(N4CCN(C)CC4)CC3)c(OC)c2)nc1NC1CCOCC1 |  | healthy humans, fasted, plasma | oral, 40 mg, single dose |  | AUC(0-72h) | 865 ng·h/mL |
| CCn1c(=O)c2c(nc(/C=C/c3ccc(O)c(OC)c3)n2C)n(CC)c1=O |  | healthy humans, plasma | oral, 40 mg, together with: rifampin 600 mg/day |  | metabolite to parent AUClast ratio | 0.0613 |
| CCCC[C@H](NC(C)=O)C(=O)N[C@H]1CCC(=O)NC[C@@H](C(=O)N[C@@H](Cc2c[nH]c3ccccc23)C(N)=O)NC(=O)[C@H](CCCNC(=N)N)NC(=O)[C@@H](Cc2ccccc2)NC(=O)[C@H](Cc2c[nH]cn2)NC1=O |  | CD Sprague Dawley rat, female, plasma | subcutaneous, 5.0 mg/kg daily, day 1 |  | Vd/F | 10.1 L/kg |
| CCCC[C@@H]1NC(=O)[C@@H](NC(=O)[C@H](CCC(=O)O)NC(=O)CNC(=O)CN2CCN(CC(=O)O)CCN(CC(=O)O)CCN(CC(=O)O)CC2)CCCCNC(=O)C[C@@H](C(N)=O)NC(=O)[C@H](C(C)C)NC(=O)[C@@H]2CCCN2C(=O)[C@H](CCCNC(=N)N)NC(=O)CNC(=O)[C@H](Cc2c[nH]c3ccccc23)NC(=O)[C@H](CCCNC(=N)N)NC(=O)[C@@H](Cc2ccccc2)NC(=O)[C@H](Cc2c[nH]cn2)NC(=O)[C@H](CCC(=O)O)NC1=O [indium-111 labelled] |  | C57 mice, B16/F10 lung metastatic melanoma, stomach | intravenous, 0.037 MBq, 2 h |  | tissue uptake | 0.13 ± 0.05 %ID/g |
| COc1cccc(N2CCN(C3=Nc4c(F)cccc4[C@H](CC(=O)O)N3c3cc(C(F)(F)F)ccc3OC)CC2)c1 | UHPLC-MS/MS | healthy women, plasma | intravenous infusion, 240 mg single dose, 30 min infusion, HPβCD formulation |  | elimination rate constant | 1.83e-05 ± 2.7e-06 s⁻¹ |
